Published values of several laboratories.
Compare with care: the assays were run in different laboratories. Several values in a cell are separate wells, animals, samples, runs or records. pEC50, pIC50, pKd: −log10 of the molar value.
GBA1 R534H: Lysosomal acid glucosylceramidase (GBA1, Homo sapiens, UniProt P04062, R534H)
UniProt P04062, sequence (whole entry, unmodified, looked up): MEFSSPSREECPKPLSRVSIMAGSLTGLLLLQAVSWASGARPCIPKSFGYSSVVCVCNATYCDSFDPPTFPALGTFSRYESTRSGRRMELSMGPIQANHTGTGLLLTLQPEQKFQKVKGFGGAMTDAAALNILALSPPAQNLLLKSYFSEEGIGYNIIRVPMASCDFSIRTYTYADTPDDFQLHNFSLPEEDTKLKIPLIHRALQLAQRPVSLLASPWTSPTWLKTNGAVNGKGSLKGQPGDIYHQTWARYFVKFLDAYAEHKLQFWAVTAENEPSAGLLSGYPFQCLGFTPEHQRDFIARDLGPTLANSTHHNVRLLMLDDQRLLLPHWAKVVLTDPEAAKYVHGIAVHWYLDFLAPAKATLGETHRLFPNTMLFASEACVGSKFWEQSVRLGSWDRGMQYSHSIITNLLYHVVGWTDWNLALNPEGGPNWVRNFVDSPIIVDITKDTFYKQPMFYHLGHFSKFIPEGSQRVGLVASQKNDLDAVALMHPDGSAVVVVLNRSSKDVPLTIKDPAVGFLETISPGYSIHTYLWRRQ
ROCK1: Rho-associated protein kinase 1 (ROCK1, Homo sapiens, UniProt Q13464)
UniProt Q13464, sequence (whole entry, looked up): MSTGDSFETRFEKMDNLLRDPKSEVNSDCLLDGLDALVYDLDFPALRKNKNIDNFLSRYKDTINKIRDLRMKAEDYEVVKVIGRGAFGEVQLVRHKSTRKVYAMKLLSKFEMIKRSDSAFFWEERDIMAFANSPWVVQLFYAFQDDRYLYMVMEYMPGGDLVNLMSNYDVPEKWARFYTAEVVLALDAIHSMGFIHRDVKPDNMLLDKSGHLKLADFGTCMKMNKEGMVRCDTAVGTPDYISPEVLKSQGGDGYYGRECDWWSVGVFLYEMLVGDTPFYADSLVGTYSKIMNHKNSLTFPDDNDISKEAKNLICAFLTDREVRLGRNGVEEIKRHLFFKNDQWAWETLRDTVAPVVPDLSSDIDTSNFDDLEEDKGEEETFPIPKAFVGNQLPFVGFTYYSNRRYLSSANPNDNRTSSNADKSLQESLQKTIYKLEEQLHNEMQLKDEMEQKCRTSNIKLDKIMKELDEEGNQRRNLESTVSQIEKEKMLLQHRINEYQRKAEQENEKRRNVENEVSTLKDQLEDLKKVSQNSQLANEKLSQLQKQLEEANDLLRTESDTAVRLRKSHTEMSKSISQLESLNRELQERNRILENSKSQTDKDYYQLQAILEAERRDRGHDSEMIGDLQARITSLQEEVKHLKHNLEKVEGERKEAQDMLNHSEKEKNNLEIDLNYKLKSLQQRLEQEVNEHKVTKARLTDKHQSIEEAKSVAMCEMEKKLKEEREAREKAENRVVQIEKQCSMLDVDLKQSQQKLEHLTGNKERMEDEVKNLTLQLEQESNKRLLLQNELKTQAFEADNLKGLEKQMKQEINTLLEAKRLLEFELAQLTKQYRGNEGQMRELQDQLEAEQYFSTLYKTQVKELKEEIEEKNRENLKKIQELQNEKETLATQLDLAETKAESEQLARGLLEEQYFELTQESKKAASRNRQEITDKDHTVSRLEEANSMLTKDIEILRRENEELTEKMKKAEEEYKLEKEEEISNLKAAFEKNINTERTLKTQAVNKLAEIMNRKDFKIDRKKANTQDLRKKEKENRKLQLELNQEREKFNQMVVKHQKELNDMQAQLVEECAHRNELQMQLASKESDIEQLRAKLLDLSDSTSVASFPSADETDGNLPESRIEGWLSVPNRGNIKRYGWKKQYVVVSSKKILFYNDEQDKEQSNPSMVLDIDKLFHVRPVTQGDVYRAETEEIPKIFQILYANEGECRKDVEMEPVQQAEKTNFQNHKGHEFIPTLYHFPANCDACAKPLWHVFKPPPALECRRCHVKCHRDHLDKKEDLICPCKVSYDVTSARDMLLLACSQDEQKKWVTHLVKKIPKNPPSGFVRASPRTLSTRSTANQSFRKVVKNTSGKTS
UniProt Q9SZU7, sequence (whole entry, unmodified, looked up): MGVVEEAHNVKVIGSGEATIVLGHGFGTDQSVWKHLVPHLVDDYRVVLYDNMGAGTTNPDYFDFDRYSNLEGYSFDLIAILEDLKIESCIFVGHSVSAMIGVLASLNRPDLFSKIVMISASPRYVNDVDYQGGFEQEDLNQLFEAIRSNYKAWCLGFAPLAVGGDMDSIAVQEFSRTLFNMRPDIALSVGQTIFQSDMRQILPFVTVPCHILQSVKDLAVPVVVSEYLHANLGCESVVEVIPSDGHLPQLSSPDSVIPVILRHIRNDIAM
UniProt P43220, sequence (whole entry, unmodified, looked up): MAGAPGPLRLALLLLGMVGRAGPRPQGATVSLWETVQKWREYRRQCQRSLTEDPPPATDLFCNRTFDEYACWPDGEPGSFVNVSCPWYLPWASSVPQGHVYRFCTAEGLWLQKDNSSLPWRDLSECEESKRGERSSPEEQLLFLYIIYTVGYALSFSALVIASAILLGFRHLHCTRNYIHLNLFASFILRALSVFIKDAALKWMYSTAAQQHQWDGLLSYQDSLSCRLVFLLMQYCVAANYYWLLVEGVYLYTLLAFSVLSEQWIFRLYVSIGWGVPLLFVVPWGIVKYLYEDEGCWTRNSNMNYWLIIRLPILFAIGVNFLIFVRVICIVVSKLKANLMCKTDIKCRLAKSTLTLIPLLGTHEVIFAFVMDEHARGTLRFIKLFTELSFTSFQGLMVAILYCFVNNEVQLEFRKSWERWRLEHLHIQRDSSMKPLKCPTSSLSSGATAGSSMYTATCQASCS
UniProt Q8TDS7, sequence (whole entry, looked up): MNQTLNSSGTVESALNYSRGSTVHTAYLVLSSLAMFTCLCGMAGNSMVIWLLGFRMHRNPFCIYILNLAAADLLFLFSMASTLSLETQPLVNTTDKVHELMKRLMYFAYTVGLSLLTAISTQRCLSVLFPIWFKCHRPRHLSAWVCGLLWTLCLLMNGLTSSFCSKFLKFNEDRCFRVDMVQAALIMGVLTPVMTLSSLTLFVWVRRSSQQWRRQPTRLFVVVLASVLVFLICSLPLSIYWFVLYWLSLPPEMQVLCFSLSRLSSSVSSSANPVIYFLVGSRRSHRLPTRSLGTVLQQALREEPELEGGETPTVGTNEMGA

| Structure (SMILES) | target or system | test | system | setting | scale | quantity | result |
| --- | --- | --- | --- | --- | --- | --- | --- |
| OC[C@@H]1[C@@H](O)[C@H](O)[C@@H](O)CN1CCCCCOCc1ccc(-c2ccc(Br)cc2)cc1 | GBA1 R534H | inhibitor, 4MU-β-D-glucopyranoside | – | with: 4MU-β-D-glucopyranoside | – | pIC50 | 5.59 |
| COc1cc(C2C(NC(=O)c3ccc(NC(=O)OC(C)(C)C)cc3)(C(=O)O)C(c3ccc(OC(=O)c4cccs4)c(OC)c3)C2(NC(=O)c2ccc(NC(=O)OC(C)(C)C)cc2)C(=O)O)ccc1OC(=O)c1cccs1 (stereo not drawn) | GLP1R (Homo sapiens, UniProt P43220, L388A) | cAMP, agonist | – | – | – | pEC50 | 7.12 |
| COc1ccc(C2(C(=O)N3CCC(Nc4nc5ccccc5c(=O)[nH]4)CC3)CC2)cc1 | MRGPRD (Homo sapiens, UniProt Q8TDS7) | miniGq recruitment, agonist, BRET | HEK293T | wild type | – | pEC50 | 6.65 |
| CC(C)Oc1ccc(CNCCC2(C(C)C)CCOC(C)(C)C2)cc1 (stereo not drawn) | Trypanosoma cruzi | reporter mRNA translation, inhibitor, refers to: Renilla luciferase mRNA | cell-free extract | concentration not given, test 2 | reference: positive over negative control | translation activity | 67.8% and 77.3% |
| Cc1cccc2c1N(C(=O)n1ccnn1)CC2 | KAI2 (Arabidopsis thaliana, UniProt Q9SZU7, L218A) | ITC | – | L218A mutant, mean | – | pKd | 4.96 |
| CCc1ccc(CN2CCCC(CNC(=O)c3cccc(OC)c3OC)C2)cc1 (stereo not drawn) | Trypanosoma cruzi | reporter mRNA translation, inhibitor, refers to: Renilla luciferase mRNA | cell-free extract | concentration not given, test 2 | reference: positive over negative control | translation activity | 109% and 99.7% |
| OC[C@H]1[C@@H](O)[C@H](O)[C@@H](O)CN1CCCCCOCCC12CC3CC(CC(C3)C1)C2 | GBA1 R534H | inhibitor, 4MU-β-D-glucopyranoside | – | with: 4MU-β-D-glucopyranoside | – | pIC50 | 5.70 |
| Cc1c[nH]c2nccc(-c3ccc(C(=O)N[C@@H]4c5c(F)cc(C(F)F)cc5C[C@@H]4O)cn3)c12 | ROCK1 | binding, competition with immobilised ligand | – | – | – | pKd | 8.27 |
| Cc1nn(-c2cccc(N)c2)c(=O)c2cnc(Nc3ccc(N4CCNCC4)cc3)nc12 | ROCK1 | kinase activity, inhibitor, SelectScreen kinase profiling | – | – | – | pIC50 | < 5.00 |
| CSCC[C@H](NC(=O)[C@H](CCC(N)=O)NC(=O)[C@H](CCCCN)NC(=O)[C@H](CCCNC(=N)N)NC(=O)[C@H](Cc1ccc(O)cc1)NC(=O)[C@H](CCCNC(=N)N)NC(=O)[C@H](CO)NC(=O)[C@H](Cc1ccc(O)cc1)NC(=O)[C@H](CO)NC(=O)[C@H](CC(=O)O)NC(=O)[C@@H](NC(=O)[C@@H](N)Cc1ccccc1)[C@@H](C)O)C(=O)N[C@@H](C)C(=O)N[C@H](C(=O)N[C@@H](CCCCN)C(=O)N[C@@H](CCCCn1cc(C[C@H](NC(=O)CNC(=O)[C@H](CO)NC(=O)[C@H](CCCNC(=N)N)NC(=O)[C@H](CO)NC(=O)[C@H](CC(C)C)NC(=O)[C@H](CC(C)C)NC(=O)CNC(=O)[C@H](C)NC(=O)[C@H](CC(C)C)NC(=O)[C@H](CCCNC(=N)N)NC(=O)[C@H](Cc2c[nH]cn2)NC(=O)[C@@H](NC(=O)[C@@H](N)C(C)C)[C@@H](C)O)C(=O)N[C@H](C(=O)N[C@H](C(=O)N[C@@H](CCCCN)C(=O)N[C@@H](CC(N)=O)C(=O)N[C@@H](CC(N)=O)C(=O)N[C@@H](Cc2ccccc2)C(=O)N[C@H](C(=O)N2CCC[C@H]2C(=O)N[C@H](C(=O)N[C@@H](CC(N)=O)C(=O)N[C@H](C(=O)NCC(=O)N[C@@H](CO)C(=O)N[C@@H](CCCCN)C(=O)N[C@@H](C)C(=O)N[C@@H](Cc2ccccc2)C(N)=O)C(C)C)[C@@H](C)O)C(C)C)C(C)C)C(C)C)nn1)C(=O)N[C@@H](Cc1ccc(O)cc1)C(=O)N[C@@H](CC(C)C)C(=O)N[C@@H](C)C(=O)N[C@@H](C)C(=O)N[C@H](C(=O)N[C@@H](CC(C)C)C(=O)NCC(=O)N[C@@H](CCCCN)C(=O)N[C@@H](CCCNC(=N)N)C(=O)N[C@@H](Cc1ccc(O)cc1)C(=O)N[C@@H](CCCCN)C(=O)N[C@@H](CCC(N)=O)C(=O)N[C@@H](CCCNC(=N)N)C(=O)N[C@H](C(=O)N[C@@H](CCCCN)C(=O)N[C@@H](CC(N)=O)C(=O)N[C@@H](CCCCN)C(N)=O)C(C)C)C(C)C)C(C)C | PACAP-responsive receptors, rat | cAMP accumulation, antagonist | rat spinal cord | with: VIP | – | Kb | 0.407 µM |
| OC[C@@H]1[C@@H](O)[C@H](O)[C@@H](O)CN1CCCCCOCc1ccc(-c2ccnc(F)c2)cc1 | GBA1 R534H | inhibitor, 4MU-β-D-glucopyranoside | – | with: 4MU-β-D-glucopyranoside | – | pIC50 | 5.70 |
| CCc1nc2cc3ccccc3cc2cc1C(=O)N1CCC[C@H]1C(=O)N[C@@H](C/C=C/C[C@H](NC(=O)[C@@H]1CCCN1C(=O)c1cc2cc3ccccc3cc2nc1CC)C(=O)N[C@@H](CCCCN)C(=O)NCCCN)C(=O)N[C@@H](CCCCN)C(=O)NCCCN | (CUG)4 RNA | SPR | – | – | – | pKd | 7.32 |

Repeated from above:
| Structure (SMILES) | target or system | test | system | setting | scale | quantity | result |
| --- | --- | --- | --- | --- | --- | --- | --- |
| CCc1ccc(CN2CCCC(CNC(=O)c3cccc(OC)c3OC)C2)cc1 (stereo not drawn) | Trypanosoma cruzi | reporter mRNA translation, inhibitor, refers to: Renilla luciferase mRNA | cell-free extract | concentration not given, test 2 | reference: positive over negative control | translation activity | 109% and 99.7% |
| OC[C@H]1[C@@H](O)[C@H](O)[C@@H](O)CN1CCCCCOCCC12CC3CC(CC(C3)C1)C2 | GBA1 R534H | inhibitor, 4MU-β-D-glucopyranoside | – | with: 4MU-β-D-glucopyranoside | – | pIC50 | 5.70 |
